Experimental data from different studies.
Each numbered part is a random draw from the data of one study; scales do not carry over between parts.
Sequence of UniProt Q15139 (whole entry, looked up): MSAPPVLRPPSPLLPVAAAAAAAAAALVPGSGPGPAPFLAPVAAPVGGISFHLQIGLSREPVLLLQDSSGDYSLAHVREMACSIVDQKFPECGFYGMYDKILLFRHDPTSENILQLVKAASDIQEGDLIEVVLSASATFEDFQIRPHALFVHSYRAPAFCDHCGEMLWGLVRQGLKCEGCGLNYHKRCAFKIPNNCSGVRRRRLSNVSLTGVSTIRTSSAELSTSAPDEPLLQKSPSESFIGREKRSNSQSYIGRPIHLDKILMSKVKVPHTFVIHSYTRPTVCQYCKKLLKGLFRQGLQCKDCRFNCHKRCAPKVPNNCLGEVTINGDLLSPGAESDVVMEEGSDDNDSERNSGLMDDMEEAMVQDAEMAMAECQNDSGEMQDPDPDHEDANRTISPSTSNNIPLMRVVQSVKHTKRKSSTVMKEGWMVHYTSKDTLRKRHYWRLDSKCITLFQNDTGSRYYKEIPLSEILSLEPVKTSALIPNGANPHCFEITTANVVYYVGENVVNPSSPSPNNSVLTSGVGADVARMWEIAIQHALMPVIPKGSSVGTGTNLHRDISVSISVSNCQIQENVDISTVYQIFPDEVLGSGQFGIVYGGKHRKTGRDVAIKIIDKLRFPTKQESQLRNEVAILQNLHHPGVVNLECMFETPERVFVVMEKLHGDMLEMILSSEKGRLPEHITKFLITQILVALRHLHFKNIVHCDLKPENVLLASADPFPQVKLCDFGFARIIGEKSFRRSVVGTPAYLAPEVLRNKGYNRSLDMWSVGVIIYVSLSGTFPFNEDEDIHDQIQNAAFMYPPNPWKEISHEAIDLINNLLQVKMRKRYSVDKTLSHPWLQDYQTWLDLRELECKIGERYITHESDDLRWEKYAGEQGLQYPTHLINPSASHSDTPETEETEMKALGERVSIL
Sequence of UniProt Q09013 (whole entry, looked up): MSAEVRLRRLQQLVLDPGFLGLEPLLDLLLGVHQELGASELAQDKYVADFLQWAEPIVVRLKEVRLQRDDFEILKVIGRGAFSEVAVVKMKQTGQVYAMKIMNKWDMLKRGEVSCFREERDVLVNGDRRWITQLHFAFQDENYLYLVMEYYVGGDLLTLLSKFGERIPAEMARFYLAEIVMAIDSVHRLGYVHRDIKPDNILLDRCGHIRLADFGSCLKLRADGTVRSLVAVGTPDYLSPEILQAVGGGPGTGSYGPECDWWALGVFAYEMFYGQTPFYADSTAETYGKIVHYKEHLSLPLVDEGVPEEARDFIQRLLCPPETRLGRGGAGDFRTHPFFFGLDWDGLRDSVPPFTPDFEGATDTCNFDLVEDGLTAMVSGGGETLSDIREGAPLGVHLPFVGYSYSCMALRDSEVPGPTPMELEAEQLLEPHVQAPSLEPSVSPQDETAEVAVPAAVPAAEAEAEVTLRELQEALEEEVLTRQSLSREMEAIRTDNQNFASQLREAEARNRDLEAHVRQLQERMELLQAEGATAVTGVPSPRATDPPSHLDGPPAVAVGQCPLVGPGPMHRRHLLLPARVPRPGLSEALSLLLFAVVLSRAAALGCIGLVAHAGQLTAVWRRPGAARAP
Sequence of UniProt Q16288 (whole entry, looked up): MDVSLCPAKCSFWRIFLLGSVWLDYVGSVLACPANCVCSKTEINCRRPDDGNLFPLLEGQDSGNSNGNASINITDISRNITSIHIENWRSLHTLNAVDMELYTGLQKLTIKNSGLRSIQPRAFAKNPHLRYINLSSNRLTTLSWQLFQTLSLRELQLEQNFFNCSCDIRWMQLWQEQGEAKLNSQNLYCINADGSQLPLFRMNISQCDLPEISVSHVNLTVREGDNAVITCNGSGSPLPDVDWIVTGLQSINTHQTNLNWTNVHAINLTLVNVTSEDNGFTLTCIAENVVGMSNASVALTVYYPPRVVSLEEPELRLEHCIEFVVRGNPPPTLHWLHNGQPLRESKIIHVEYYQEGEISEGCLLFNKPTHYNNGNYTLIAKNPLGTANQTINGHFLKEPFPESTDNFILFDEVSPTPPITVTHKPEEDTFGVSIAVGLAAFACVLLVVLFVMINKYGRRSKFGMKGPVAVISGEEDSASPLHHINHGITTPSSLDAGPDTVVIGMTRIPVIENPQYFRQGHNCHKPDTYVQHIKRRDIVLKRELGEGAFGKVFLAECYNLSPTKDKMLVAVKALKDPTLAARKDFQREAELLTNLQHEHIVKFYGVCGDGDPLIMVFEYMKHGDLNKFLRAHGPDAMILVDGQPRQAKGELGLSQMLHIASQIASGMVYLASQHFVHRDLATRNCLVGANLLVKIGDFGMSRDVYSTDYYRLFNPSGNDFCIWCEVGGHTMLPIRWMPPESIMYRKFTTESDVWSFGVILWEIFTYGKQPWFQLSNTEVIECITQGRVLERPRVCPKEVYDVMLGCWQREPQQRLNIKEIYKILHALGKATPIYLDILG
Sequence of UniProt P07949 (whole entry, looked up): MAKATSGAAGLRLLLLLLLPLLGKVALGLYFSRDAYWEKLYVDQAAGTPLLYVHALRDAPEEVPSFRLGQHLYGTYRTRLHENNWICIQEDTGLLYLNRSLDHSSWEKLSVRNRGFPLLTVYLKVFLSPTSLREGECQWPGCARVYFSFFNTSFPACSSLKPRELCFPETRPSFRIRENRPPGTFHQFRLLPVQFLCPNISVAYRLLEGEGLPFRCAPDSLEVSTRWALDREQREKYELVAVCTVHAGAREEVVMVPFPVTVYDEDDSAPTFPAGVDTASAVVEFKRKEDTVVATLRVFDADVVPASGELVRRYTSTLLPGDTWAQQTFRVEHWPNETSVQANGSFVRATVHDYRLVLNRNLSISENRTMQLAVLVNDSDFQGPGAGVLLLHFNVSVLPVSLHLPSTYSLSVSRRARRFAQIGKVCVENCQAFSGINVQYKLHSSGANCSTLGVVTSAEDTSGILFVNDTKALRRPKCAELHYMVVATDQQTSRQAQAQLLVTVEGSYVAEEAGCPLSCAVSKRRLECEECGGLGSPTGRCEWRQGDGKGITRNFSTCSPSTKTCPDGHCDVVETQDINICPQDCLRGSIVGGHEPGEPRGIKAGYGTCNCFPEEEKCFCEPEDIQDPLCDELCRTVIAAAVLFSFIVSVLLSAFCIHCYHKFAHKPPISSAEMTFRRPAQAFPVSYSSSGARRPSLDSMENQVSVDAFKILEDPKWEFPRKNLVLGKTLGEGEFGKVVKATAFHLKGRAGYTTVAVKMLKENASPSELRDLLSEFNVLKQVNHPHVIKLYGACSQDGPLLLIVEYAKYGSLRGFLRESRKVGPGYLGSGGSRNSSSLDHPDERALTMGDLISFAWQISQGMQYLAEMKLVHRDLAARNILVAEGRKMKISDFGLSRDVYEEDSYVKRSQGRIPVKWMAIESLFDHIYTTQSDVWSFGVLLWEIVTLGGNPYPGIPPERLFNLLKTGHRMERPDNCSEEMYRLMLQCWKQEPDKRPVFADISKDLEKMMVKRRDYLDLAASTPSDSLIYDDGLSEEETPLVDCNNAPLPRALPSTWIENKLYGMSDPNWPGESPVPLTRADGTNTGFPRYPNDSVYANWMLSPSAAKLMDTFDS
Sequence of UniProt Q8IU85 (whole entry, looked up): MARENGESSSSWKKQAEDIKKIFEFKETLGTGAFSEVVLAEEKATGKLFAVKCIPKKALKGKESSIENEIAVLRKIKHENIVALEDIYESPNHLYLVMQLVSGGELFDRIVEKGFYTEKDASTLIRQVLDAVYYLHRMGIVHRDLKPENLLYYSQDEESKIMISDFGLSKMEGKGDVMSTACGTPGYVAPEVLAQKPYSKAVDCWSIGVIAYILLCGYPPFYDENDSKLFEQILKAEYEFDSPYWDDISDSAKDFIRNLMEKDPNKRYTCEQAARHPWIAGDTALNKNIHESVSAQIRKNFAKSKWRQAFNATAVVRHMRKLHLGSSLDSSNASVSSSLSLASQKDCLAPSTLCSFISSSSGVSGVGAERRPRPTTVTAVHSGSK
Sequence of UniProt Q9Y2U5 (whole entry, looked up): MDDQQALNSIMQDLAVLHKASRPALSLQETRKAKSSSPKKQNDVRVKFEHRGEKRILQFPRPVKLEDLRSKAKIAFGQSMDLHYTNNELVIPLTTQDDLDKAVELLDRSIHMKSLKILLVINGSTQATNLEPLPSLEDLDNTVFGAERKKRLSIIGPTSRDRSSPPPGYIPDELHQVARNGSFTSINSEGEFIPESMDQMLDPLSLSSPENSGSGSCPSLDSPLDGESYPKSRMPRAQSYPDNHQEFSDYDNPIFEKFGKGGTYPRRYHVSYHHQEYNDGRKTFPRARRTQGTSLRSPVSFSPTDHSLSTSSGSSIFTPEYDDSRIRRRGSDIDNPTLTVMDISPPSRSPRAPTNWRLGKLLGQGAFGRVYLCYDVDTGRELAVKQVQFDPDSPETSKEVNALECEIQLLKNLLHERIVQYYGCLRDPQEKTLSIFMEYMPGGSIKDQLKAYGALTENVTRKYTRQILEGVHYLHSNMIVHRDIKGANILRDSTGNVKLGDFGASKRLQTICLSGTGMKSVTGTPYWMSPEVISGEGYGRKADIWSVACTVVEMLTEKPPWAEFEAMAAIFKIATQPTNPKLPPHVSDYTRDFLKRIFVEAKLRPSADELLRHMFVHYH
Sequence of UniProt P53779 (whole entry, looked up): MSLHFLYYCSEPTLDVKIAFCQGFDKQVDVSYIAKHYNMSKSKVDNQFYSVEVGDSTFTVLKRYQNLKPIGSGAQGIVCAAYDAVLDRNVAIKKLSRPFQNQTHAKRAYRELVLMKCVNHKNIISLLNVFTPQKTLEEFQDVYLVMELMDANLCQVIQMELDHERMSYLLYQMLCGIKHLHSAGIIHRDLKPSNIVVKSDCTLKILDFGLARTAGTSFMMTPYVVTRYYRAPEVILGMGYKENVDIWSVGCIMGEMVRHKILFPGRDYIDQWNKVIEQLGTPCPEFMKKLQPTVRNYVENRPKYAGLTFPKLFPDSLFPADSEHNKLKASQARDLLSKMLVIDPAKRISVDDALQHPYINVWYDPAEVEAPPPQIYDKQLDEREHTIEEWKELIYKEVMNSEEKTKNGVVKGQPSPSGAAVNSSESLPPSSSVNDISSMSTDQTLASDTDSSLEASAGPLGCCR

Study 1 — observed: enzyme activity; mode: inhibitor; concentration: 0.5 µM; relative to: control
SMILES: O=S(=O)(NCCNC/C=C/c1ccc(Br)cc1)c1cccc2cnccc12
| target | remaining activity |
| --- | --- |
| RET (Homo sapiens, UniProt P07949) | 102% |
| GRK5 (Homo sapiens, UniProt P34947) | 127% |
| MAPK10 (Homo sapiens, UniProt P53779) | 92.6% |
| CAMK1D (Homo sapiens, UniProt Q8IU85) | 85.5% |
| SLK (Homo sapiens, UniProt Q9H2G2) | 93% |
| BRSK1 (Homo sapiens, UniProt Q8TDC3) | 92% |
| PTK2B (Homo sapiens, UniProt Q14289) | 85% |
| ROS1 (Homo sapiens, UniProt P08922) | 99.6% |
| PRKD1 (Homo sapiens, UniProt Q15139) | 98.7% |
| CDK7 (Homo sapiens, UniProt P50613) | 82.8% |
| Aurora kinase A (AURKA, Homo sapiens, UniProt O14965) | 104% |
| NTRK3 (Homo sapiens, UniProt Q16288) | 79.6% |
| CAMK1G (Homo sapiens, UniProt Q96NX5) | 99.1% |
| DYRK4 (Homo sapiens, UniProt Q9NR20) | 96.4% |
| NEK9 (Homo sapiens, UniProt Q8TD19) | 99.3% |
| MAP3K2 (Homo sapiens, UniProt Q9Y2U5) | 91.5% |
| PKN2 (Homo sapiens, UniProt Q16513) | 78.9% |
| HIPK3 (Homo sapiens, UniProt Q9H422) | 81.7% |
| DMPK (Homo sapiens, UniProt Q09013) | 96.6% |
| MAP3K8 (Homo sapiens, UniProt P41279) | 99.4% |
| CSNK2A2 (Homo sapiens, UniProt P19784) | 86.6% |
| Cyclin-dependent kinase 2, with cyclin A (CDK2, Homo sapiens, UniProt P24941) | 105% |

Study 2 — cell line: A-375; concentration: 100 µM; time: 36 h
| SMILES | viability [%] |
| --- | --- |
| CN1CCN2c3ncccc3Cc3ccccc3C2C1 (stereo not drawn) | 108 |
| CC(C(=O)O)c1ccc2c(c1)[nH]c1ccc(Cl)cc12 (stereo not drawn) | 88.5 |
| CC1(C)S[C@@H]2[C@H](NC(=O)[C@H](C(=O)O)c3ccsc3)C(=O)N2[C@H]1C(=O)O | 101 |
| CNCC(O)c1ccc(O)c(O)c1 (racemic) | 132 |
| Cn1c(=O)c2[nH]c(Br)nc2n(C)c1=O | 95 |
| O=C(CCNNC(=O)c1ccncc1)NCc1ccccc1 | 101 |
| CCN(CC)C(=O)N1CCN(C)CC1 | 107 |
| CCCCC1(COC(=O)CCC(=O)O)C(=O)N(c2ccccc2)N(c2ccccc2)C1=O | 118 |
| COC(=O)[C@@H]1[C@H]2C[C@H]3c4[nH]c5ccccc5c4CCN3C[C@@H]2CC[C@@H]1O | 53.7 |
| CN(C)CCCN1c2ccccc2Sc2ccccc21 | -0.773 |
| Cc1c(O)c(=O)n(-c2ccccc2)n1C | 125 |
| COc1ccc2c(c1)c(CC(=O)O)c(C)n2C(=O)c1ccc(Cl)cc1 | 103 |
| CC[C@H](C)C(=O)O[C@H]1CCC=C2C=C[C@H](C)[C@H](CC[C@@H]3C[C@@H](O)CC(=O)O3)[C@H]21 | 2.85 |
| O=C1c2c(O)ccc(O)c2C(=O)c2c(NCCNCCO)ccc(NCCNCCO)c21 | -7.54 |
| C[C@]12CC[C@@H]3c4ccc(O)cc4CC[C@H]3[C@@H]1C[C@@H](O)[C@@H]2O | 91.4 |
| CC(C)N(CCCCOCC(=O)NS(C)(=O)=O)c1cnc(-c2ccccc2)c(-c2ccccc2)n1 | 60.1 |
| NCCCC[C@H](N[C@@H](CCc1ccccc1)C(=O)O)C(=O)N1CCC[C@H]1C(=O)O | 94 |
| CCCC(=O)OCOC(=O)C1=C(C)NC(C)=C(C(=O)OC)C1c1cccc(Cl)c1Cl (stereo not drawn) | 11.2 |
| CC(=O)OCC(=O)NCCCOc1cccc(CN2CCCCC2)c1 | 89.9 |
| COC(=O)C1=C(C)NC(C)=C(C(=O)OCCN(C)Cc2ccccc2)C1c1cccc([N+](=O)[O-])c1 (stereo not drawn) | 4.76 |

Mixed results
| Compound | cell line | technique | concentration | time | relative to | measurement | value |
| --- | --- | --- | --- | --- | --- | --- | --- |
| Cc1[nH]nc2ccc(-c3cncc(OC[C@@H](N)Cc4ccccc4)c3)cc12 | HuT78 | CCK-8 | 2 µM | 48 h | untreated control | log10 relative viability | -0.954 |
| Cn1cncc1[C@@](O)(COc1ccc(C#N)cc1-c1ccc(OC(F)(F)F)cc1)c1ccc(C#N)cc1 | HEK293T | high-content imaging | 10 µM | 24 h | – | cells with altered mitochondria | 15.6% |
| CCOC(=O)c1cnc2ccc(-c3cncc(NS(=O)(=O)c4ccccc4)c3)cn12 | HuT78 | CCK-8 | 2 µM | 48 h | untreated control | log10 relative viability | -1.13 |

For quick reference, copied from above (study 1):
| target | remaining activity |
| --- | --- |
| RET (Homo sapiens, UniProt P07949) | 102% |
| MAP3K2 (Homo sapiens, UniProt Q9Y2U5) | 91.5% |
| SLK (Homo sapiens, UniProt Q9H2G2) | 93% |
